{"data": "Measured values pooled from the literature", "note": "Numbered parts are unrelated; each lists some results of a single study."}
{"data": "Set 1", "target": "RNA binding protein fox-1 homolog 2, RRM domain, GST-SBP tag (RBFOX2, Homo sapiens, UniProt O43251-10, residues 100-194)", "method": "RNA Bind-n-Seq", "form": "RNA", "sample": "in vitro", "concentration": "365 nM", "setting": "natural RNA segment, single round, ends assumed", "relative to": "no-protein control", "reading": "higher = stronger binding", "shared flanks, not repeated": "GGGAGUUCUACAGUCCGACGAUC … UGGAAUUCUCGGGUGCCAA", "Target sequence (chain)": "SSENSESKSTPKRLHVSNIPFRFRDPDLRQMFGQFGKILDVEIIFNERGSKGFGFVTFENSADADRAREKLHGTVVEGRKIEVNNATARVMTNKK"}
{"Strand": "AGAGGGGUAGGAUGUACAGGGGUAGUUUGUUUUAGAACCAGCCGUAUUUUACAUGAAGCUGUAUAAUUAAUUGUCAUUAUUUUUGUUAGCAAAGAUUAAAUGUGUCAUUG", "RBNS enrichment (R)": 0.614}
{"Strand": "CUGAGCCAUGUGUGCCCCUGCGGGAGGACCCAUUCAUGCCAGAAAGCUGGUAACUCCCUCCCAGCAUCCCUGCGGAAGGAGUCAGUUUCUGAGAGUGUGACUUUUCAAGG", "RBNS enrichment (R)": 0.652}
{"Strand": "AAGGACCGGCUCAGGCACUGACCCUCUGAGUCACGUGAAUGAGGACGAAGAAUUUGGAAUAGGUUUGGUUACAUCUAUUUCUCAUCCCCUUAUUUUCCACCAUUUAAAAA", "RBNS enrichment (R)": 0.353}
{"Strand": "UUAAGGAAGAAAGAAAGAGGAAAAAAAGAGAGAGAGACUCUCCAGGAGACUGUCUGGUGUCAUGACUGAAUCGCCACCUCUCUGGAAGGUGUACCGUCCUCAGGAAGCCA", "RBNS enrichment (R)": 1.03}
{"Strand": "UCUGGUCUAUUGUGUAAAUAUUUAUUUAGACUAUUUUAAUAAUACAUAUUAUUUACCCCACUGUAACAUCAUGUAAACUAAGUAUGUUUUUAAACAAUUUUUAAGACUUG", "RBNS enrichment (R)": 0.564}
{"Strand": "GUUUACAGGUAGCAAUAGUCAAUUAUUUAACUACUUAGUUGCCACCAGGAGUCACUGAGCCAAUGACUAUCAGCUGCUGACUAAUCUUCACACUGUAGUUAUUGCUUCAU", "RBNS enrichment (R)": 0.32}
{"Strand": "GGGGGAAAAGAAGAAAAAGUACCUAACACAAGCUUCCUUUUUGCACAACCGGUCCUCUUGGCUGAGGAGGAGGAGCUGGUCACCCUGGCUGCACAGUUAGAGAGGGGAGA", "RBNS enrichment (R)": 0.853}
{"Strand": "GGCUUCUCCCCACCGUGCGCCUGUUACAAACUGUUGUGGAUUCUGCCAGGCUCGAAGAAAAUGAUCUGAAUUUCUUCCUCUUUUUGGUUUUAUUUUGUUGGUUUACUUUG", "RBNS enrichment (R)": 0.504}
{"Strand": "UGAGAAAUUGGCAUUUCUACAGCUGAAAUUCAAUGUAUCUGUUAGAGAUGUCUGGAAGGGUUACUUAGCCAAAUUUUACUCAAGCCAAUUAGGAGCUGAUAUUAUCAGUU", "RBNS enrichment (R)": 0.308}
{"Strand": "AUUAUUCUUAGAAUUGAGAUUGCUACACGGAGCAGUCCUUGACGAUCGUGUUUCUGACGUUUCUCUUCCUUGCCUGGACUGCCUUUGACAAGGCAGAAAUGAACAUGAAA", "RBNS enrichment (R)": 0.593}
{"Strand": "CUACACAGGGUCUGGUUUUAAAAGUAGAGGGAAACCUCUCCUCCCCUGGUCUUUGUAGCCAUCUUUGUCCUCUGAAAUGAGGAACCGAUCCUCUUUAAAGUUCCCAAAUA", "RBNS enrichment (R)": 0.21}
{"Strand": "AUGGACCCUUCUCCUGGGGCAUUUGUUUUGUUUUCAUAAUAAAAAGCAAAAAAAAAAAAAAAAAAAAGACUGUUUUUUUUUUUUGCAUUUUCCUGUGCUUUCUGUGGGGG", "RBNS enrichment (R)": 1.27}
{"data": "Set 2", "target": "Fragile X messenger ribonucleoprotein 1, C-terminal low-complexity region (Fmr1, Mus musculus, UniProt P35922)", "method": "RNA Bind-n-Seq", "form": "RNA", "sample": "in vitro", "concentration": "200 nM", "setting": "whole 134-nt RNA, ends assumed", "added": "150 mM LiCl", "relative to": "input library", "reading": "higher = stronger binding", "library": "7-deaza-guanosine replaces G", "shared flanks, not repeated": "GGGAGUUCUACAGUCCGACGAUC … UGGAAUUCUCGGGUGUCAAGG"}
{"Strand": "GCAGGAAGUAAAAACAAAUGGAAAUAAAUCGGAUAGUGGCAGGGGUGGGGGUUGCUAAGGAAAGGGUGGGAUGGGAGUGGGUAAAGAGUU", "log2 enrichment": 1.82}
{"Strand": "GUCCUGUGCUACACAUCGUAUGUACCGAAUCGGGUGGGAAAAAAAGGGAAAAAAAGGGAAAGUAUUAUGUUACGCCGUUCGGAUCUGCAC", "log2 enrichment": 0.607}
{"Strand": "GUCCUGUGCUACACAUCGUAUGUACCGAAUCAAACCCCCAAAUUUUUAAACCCCCAAAAAAGUAUUAUGUUACGCCGUUCGGAUCUGCAC", "log2 enrichment": 1.43}
{"Strand": "CACAGACAACACGCACCCACACAGACACAGAGGGAAGGGCUUGGGAUGGGGACAGGGUGCACAGCAGGGCGGGGUAGGACCCCAGCCCCU", "log2 enrichment": -0.747}
{"Strand": "CCUGUGCUACACAUCGUAUGUACCGAAUCGGGGUUUUUUGGGGUUUUUUGGGUUUUUUGGAAAGUAUUAUGUUACGCCGUUCGGAUCUGC", "log2 enrichment": 0.783}
{"Strand": "CCUGUGCUACACAUCGUAUGUACCGAAUCGGGGUUUUUUGGGUUUUUUGGGUUUUUUGGGAAAGUAUUAUGUUACGCCGUUCGGAUCUGC", "log2 enrichment": -1.17}
{"Strand": "GUCCUGUGCUACACAUCGUAUGUACCGAAUCGGAAAAAAGGAAAAAAGGAAAAAAGGGAAAGUAUUAUGUUACGCCGUUCGGAUCUGCAC", "log2 enrichment": -0.526}
{"data": "Set 3", "target": "Histone acetyltransferase KAT6A, winged helix 2, GST fusion (KAT6A, Homo sapiens, UniProt Q92794, residues 85-181)", "method": "protein binding microarray", "form": "double-stranded DNA, one strand shown", "sample": "in vitro", "concentration": "not given", "setting": "8-mer, flanks averaged, mean of 2 arrays, mostly near background", "relative to": "not given", "reading": "higher = stronger binding", "Construct (chain)": "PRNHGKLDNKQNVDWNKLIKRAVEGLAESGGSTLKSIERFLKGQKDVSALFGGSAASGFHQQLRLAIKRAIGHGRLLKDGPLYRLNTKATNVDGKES"}
{"Strand": "AATGCATG", "E-score": -0.0479}
{"Strand": "AATGTGGC", "E-score": 0.0145}
{"Strand": "GCTGACGA", "E-score": 0.0387}
{"Strand": "ACGCGCGT", "E-score": 0.225}
{"Strand": "CATTTTAG", "E-score": 0.0835}
{"Strand": "AAACCGTC", "E-score": 0.0767}
{"Strand": "AGCCGTTC", "E-score": -0.12}
{"Strand": "GCCAACAC", "E-score": 0.15}
{"Strand": "AATGAAAG", "E-score": 0.0205}
{"Strand": "AAGATGGA", "E-score": -0.00816}
{"Strand": "ATCTAACA", "E-score": -0.154}
{"Strand": "AATCCTTG", "E-score": 0.0175}
{"data": "Other studies, line by line"}
{"Substance": "PhoQ, residues 284 288 289 292 302 303 NLMGRA", "target": "PhoP, residues 12 14 15 18 19 NQFFI (Escherichia coli, UniProt P23836)", "test": "Sort-seq, measured: YFP reporter", "system": "E. coli", "setting": "PhoQ-PhoP variant library, added: 10 µM Mg2+", "scale": "relative to: high Mg2+ state, higher = stronger signaling", "endpoint": "fold induction", "value": 12.5}
{"note": "A few entries again (set 3):"}
{"Strand": "CATTTTAG", "E-score": 0.0835}
{"Strand": "AAACCGTC", "E-score": 0.0767}
{"Strand": "AGCCGTTC", "E-score": -0.12}
{"Strand": "GCCAACAC", "E-score": 0.15}
